Measurements from different studies.
A part holds a random share of what one study measured.

Study 1
Target: Ras GTPase-activating protein-binding protein 1, full length (G3BP1, Homo sapiens, UniProt Q13283)
Chain of UniProt Q13283 (whole entry, looked up): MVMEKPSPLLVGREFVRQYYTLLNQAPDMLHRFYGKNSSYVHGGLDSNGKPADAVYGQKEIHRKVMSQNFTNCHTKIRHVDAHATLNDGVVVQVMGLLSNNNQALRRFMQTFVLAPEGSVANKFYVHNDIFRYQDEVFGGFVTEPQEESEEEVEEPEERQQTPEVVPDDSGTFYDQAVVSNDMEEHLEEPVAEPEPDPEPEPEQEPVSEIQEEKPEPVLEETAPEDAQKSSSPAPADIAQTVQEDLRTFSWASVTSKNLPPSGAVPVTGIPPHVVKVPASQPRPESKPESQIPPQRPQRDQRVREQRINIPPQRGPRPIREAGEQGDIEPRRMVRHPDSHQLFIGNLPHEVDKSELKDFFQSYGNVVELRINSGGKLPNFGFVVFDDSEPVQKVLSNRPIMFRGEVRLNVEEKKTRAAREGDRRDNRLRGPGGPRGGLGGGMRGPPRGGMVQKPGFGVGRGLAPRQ
Method: RNA Bind-n-Seq
Form: RNA
Matrix: in vitro
Tested at: 200 nM
Setting: whole 134-nt RNA, ends assumed
With: 150 mM KCl
Relative to: input library
Reading: higher = stronger binding
Endpoint: log2 enrichment
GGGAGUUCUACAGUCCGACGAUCCCUGUGCUACACAUCGUAUGUACCGAAUCGGGCCCCCCGGGCCCCCCGGGCCCCCCGGGGAAAGUAUUAUGUUACGCCGUUCGGAUCUGCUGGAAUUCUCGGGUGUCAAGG: -0.761
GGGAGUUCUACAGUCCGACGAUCUGUUGAAAUGGGACAGUUGGCAGCGGCUCUGAUGAGCCCGAGAAGAGGCCUGCCCUUGGGUGCGGAGUCUCCCUCCGCACGAUGCUCCCAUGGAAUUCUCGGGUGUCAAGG: -0.767
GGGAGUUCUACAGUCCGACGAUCUGAAAAUUCUCGACUGGCUGCUGAGGUUUACAAAGACAUGCCGGAAACCAGCUUUACUCGAACCAUUUCUAAUCCUGAGGUGGUUAUGAAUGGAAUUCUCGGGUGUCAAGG: -1.65
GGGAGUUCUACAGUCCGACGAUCUGGCCCUGGUGGCAUGCGGGGAGGAAGAGGUGGCCUCAUGGAUCGUGGUGGUCGCGGUGGAAUGUUCAGAGGUGGCCGUGGUGGAGACAGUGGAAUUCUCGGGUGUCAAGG: 0.0883
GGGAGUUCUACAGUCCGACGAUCUCCUGUGCUACACAUCGUAUGUACCGAAUCGGCCCCCCGGGGCCCCCCGGGCCCCCCGGAAAGUAUUAUGUUACGCCGUUCGGAUCUGCAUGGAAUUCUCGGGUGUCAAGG: -0.714
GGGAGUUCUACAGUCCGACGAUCUCCUGUGCUACACAUCGUAUGUACCGAAUCGGGGUGGGGUUUUUGGGGUUUUUUUGGGGAAAGUAUUAUGUUACGCCGUUCGGAUCUGCAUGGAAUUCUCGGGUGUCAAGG: 0.508

Study 2
Target: Interferon regulatory factor 5, full length, phosphomimetic (IRF5, Homo sapiens, UniProt Q13568-2, residues 1-514, K96S/S451D/S453D/S456D/S462D)
Method: protein-binding microarray
Form: double-stranded DNA, one strand shown
Matrix: in vitro
Tested at: 250 nM
Setting: 60-bp whole probe
With: salmon DNA 0.4 mg/ml
Relative to: random background probes
Reading: higher = stronger binding
Endpoint: log fluorescence
GCCTAGCACTTCCAGCTGGTGACTAGCGAGTGCTAGGTCTTGATTCGCTTGACGCTGCTG: -0.0447 z-score
GCCTAGCACGAACATTTCAATTAGAAAAAGTGCTAGGTCTTGATTCGCTTGACGCTGCTG: 1 z-score
GCCTAGCACTCATTTTTCTTTAAAAGACTGTGCTAGGTCTTGATTCGCTTGACGCTGCTG: 0.88 z-score
GCCTAGCACACATATATACAGAGATAGATGTGCTAGGTCTTGATTCGCTTGACGCTGCTG: 0.261 z-score

Study 3
Target: TAR DNA-binding protein 43, full length, His tag (TARDBP, Homo sapiens, UniProt Q13148, residues 1-414)
Method: RNA Bind-n-Seq
Form: RNA
Matrix: in vitro
Tested at: 20 nM
Setting: 6-mer, flanks averaged, single round
With: 150 mM KCl
Relative to: input library
Reading: higher = stronger binding
Endpoint: 6-mer enrichment (R)
UCCAAU: 0.595
UGAUAA: 0.686
AUGCCU: 0.656
GGACUG: 1.64
CCGUAA: 0.622
CGGUAA: 0.811
UCGCUU: 0.579

Single results of other studies
PhoQ, residues 284 288 289 292 302 303 TSTLRA
fold induction (PhoP, residues 12 14 15 18 19 SQCLL (Escherichia coli, UniProt P23836); Sort-seq, measured: YFP reporter; E. coli; PhoQ-PhoP variant library, with: 10 µM Mg2+; relative to: high Mg2+ state, higher = stronger signaling): 5.88

Some of these lines once more (study 3):
CGGUAA: 0.811
